# Published values pooled from the literature.
# Numbered parts are unrelated; each lists some results of a single study. Positions count from the first letter of the parent shown.

# Series 1
# Target: CCNF, cyclin fold, Cln2 fusion (human)
# Method: yeast growth competition, sequencing
# Matrix: yeast
# Setting: strong parent motif
# Relative to: not given
# Direction: higher = stronger binding
# Starting sequence: GMNC docking peptide (human); KNAKRNLSSEFAN; partner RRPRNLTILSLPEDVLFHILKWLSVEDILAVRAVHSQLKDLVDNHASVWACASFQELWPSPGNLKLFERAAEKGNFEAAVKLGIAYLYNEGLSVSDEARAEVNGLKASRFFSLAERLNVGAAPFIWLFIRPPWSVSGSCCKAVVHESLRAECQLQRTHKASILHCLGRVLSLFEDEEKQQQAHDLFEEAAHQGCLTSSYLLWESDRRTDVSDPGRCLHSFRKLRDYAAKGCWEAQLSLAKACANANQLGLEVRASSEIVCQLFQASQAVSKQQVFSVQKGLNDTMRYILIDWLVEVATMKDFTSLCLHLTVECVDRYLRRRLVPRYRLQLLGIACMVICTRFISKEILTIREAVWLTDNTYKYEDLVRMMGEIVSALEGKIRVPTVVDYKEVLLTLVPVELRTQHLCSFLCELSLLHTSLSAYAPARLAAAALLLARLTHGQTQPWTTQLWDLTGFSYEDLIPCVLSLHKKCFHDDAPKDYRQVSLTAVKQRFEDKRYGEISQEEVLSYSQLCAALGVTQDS
Variant,normalised enrichment score
A12T,0.939
S9L,2.03
F11A,0.399
L7I,0.728
E10G,0.593
N6K,0.595
E10L,0.952
F11Q,0.641
A3H,0.497
R5T,0.651
S8A,0.742
S9E,0.633
F11W,0.521
N2Q,0.54
F11E,0.0337
L7W,0.343
R5W,0.537
S8H,0.7
E10S,0.825
S8G,1.02
N6R,0.409
A12Y,0.515
N2F,1.02
S8N,1.38
L7T,0.805

# Series 2
# Target: Interferon regulatory factor 5, full length, phosphomimetic (IRF5, Homo sapiens, UniProt Q13568-2, residues 1-514, K96S/S451D/S453D/S456D/S462D)
# Method: protein-binding microarray
# Molecule type: double-stranded DNA, one strand shown
# Matrix: in vitro
# Concentration: 250 nM
# Setting: 60-bp whole probe
# With: salmon DNA 0.4 mg/ml
# Relative to: random background probes
# Direction: higher = stronger binding
# Constant ends, left off below: GCCTAGCAC … GTCTTGATTCGCTTGACGCTGCTG
Strand,log fluorescence [z-score]
TCATGCTTTCATTTATTACTGTGCTAG,2.89
GGAGTTTTCAGTCCTGGGATGTGCTAG,1.32
GAAGATTTCAGTCTCGAGACGTGCTAG,1.32
ACAGCTCACGCTTTGGAAAGGTGCTAG,-0.275
GAAGGTCTCCTTCTCCTGACGTGCTAG,-0.25
GACGGACTGGACCCTGGGGACGTGCTA,-0.813
TTAGGTCTCGGAATCGGTTAGTGCTAG,0.497
TTAGGTCTCAGACTGGATTAGTGCTAG,-0.355
TCACCTCTGGGCTGTTTGACTGTGCTA,-0.0877
GACGCTCTCGGTCTCGGGACGTGCTAG,0.378
TTATGTATCGGTCTCGGTTAGTGCTAG,7.29
TTAGATTTCGGGTACCGATTAGTGCTA,5.08
GACGAGCTGAGTTTCGAGACGTGCTAG,4.43
GCCGAACTGAGTATCGAGACGTGCTAG,1.74
GACGATATCGGGACTGGTGACGTGCTA,0.694
GACGGTTTCGACACTGGGGCCGTGCTA,4.49
ATTTTTTTTAGTGGATGAAAGTGCTAG,1.17
TTAGATTTCAGATTGGATTAGTGCTAG,0.821
GACCGTTTCGGGTTTCGGGACGTGCTA,7.73
TTAGGTTTCGAGTATCGGTTAGTGCTA,8.66
TTAGGTTTCGGCTTTCGGTTAGTGCTA,9.64
GGGTTTTTTAGGCAGACAGCGTGCTAG,-0.135
TTAGGTATCGACACTGGCTTAGTGCTA,2.25
GACGGACTGGATTTCGGGACGTGCTAG,0.72
AGAATCTTAGATATTAAACTGTGCTAG,0.523

# Series 3
# Target: Phosphate system positive regulatory protein PHO4, full length, GST-tagged (PHO4, Saccharomyces cerevisiae, UniProt P07270, residues 1-312)
# Method: competition protein-binding microarray
# Molecule type: double-stranded DNA, one strand shown
# Matrix: in vitro
# Concentration: 2 µM
# Setting: whole 60-bp probe, lowest competitor level
# With: Cbf1 competitor, 0.05 µM
# Direction: higher = stronger binding
# Constant ends, left off below: … GTCTTGATTCGCTTGACGCTGCTG
# Construct (chain): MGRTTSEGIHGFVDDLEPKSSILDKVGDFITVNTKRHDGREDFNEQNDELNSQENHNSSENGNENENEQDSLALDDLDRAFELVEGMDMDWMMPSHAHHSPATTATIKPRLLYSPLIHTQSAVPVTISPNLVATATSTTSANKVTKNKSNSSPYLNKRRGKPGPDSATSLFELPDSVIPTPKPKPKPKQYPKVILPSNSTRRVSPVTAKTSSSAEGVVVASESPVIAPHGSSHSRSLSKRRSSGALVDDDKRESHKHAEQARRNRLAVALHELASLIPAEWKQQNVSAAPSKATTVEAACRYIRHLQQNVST
Strand,fluorescence intensity
CATAAGAGGTTTGGACACGTTCTTAAGGCTAACTCC,13400 a.u.
CACTTCATACATGGCTACGTGGGTAACAAGGCCGCT,7980 a.u.
TGCTTTTCCATTGGTTACGTGCTAAGTTGTTAGATA,6290 a.u.
GCGAGAATTTGCACACATGTGACGCTGAATGTATAT,11100 a.u.
AAAGCGGTAATTTGTCCCGTGGGTGCAGATATCTAT,9480 a.u.
CGTCCTAGTGATTGGAGCGTGGGTGCCATGAGGAAG,8940 a.u.
AATTTGATAATTTGGCATGTGCGATCTCTTCGAAAA,11100 a.u.
CTTCTGTAAATTTGTCACAGAACTTGACGCGCCCCG,3210 a.u.
CTTCAGATGTCAGACAACGTGCAAAATCTTTTTTTC,13200 a.u.
TCAAGACCCTTAAAGCACGTTTTTTTCAGGCTCGGC,13300 a.u.
AAATTACTAAGTTGGCGTGTGGGTGACGCCGTATGA,5970 a.u.
GTTTAGGATATCGGTATCGTGGGTAAAACTCAACCA,6940 a.u.
AGGGTCTAGTCTATCAGCCTCCGAAGGAGTTGTATA,2490 a.u.
TCCACACACCGTTCACACGTGCTTTATTTCTTTTTC,18900 a.u.
CGGAAGCGCTCACTTCACGTGCTTTAAAAGCTTCTC,14600 a.u.
CAGGGGGACTCATCTCTCGTGAAGATCCAGGCTATG,3540 a.u.
GATCCTGAGAGGTCCCATGTGCTTTCCAATAACAGT,11300 a.u.
GCCAGCCACATTCACCACGGGTGCCGGTACTTCCAA,6690 a.u.
CTTTTCACTCTTCATCACATGATATTACCTTTACAT,7390 a.u.
TTGACACCATGTTTGCACATGTTACCTGCCGACTAC,9610 a.u.
GCAACCAGGGGCCACCACGTGAAGAACTGAGCAATC,12800 a.u.
CGTCCTAGTGATTGTTAGGTGGGTGCCATGAGGAAG,7470 a.u.
CGCGAACATCGGTCCCACGCTGATAGTCTCCACTAT,7460 a.u.
CCCATCATATTAACGATCGTGCCAGCCGGATTGAAC,7760 a.u.
AAGAACATTCTTTCTGTCGTGATGGTGTACTGGTGT,4620 a.u.

# Series 4
# Target: Histone acetyltransferase KAT6A, winged helix 1, GST fusion (KAT6A, Homo sapiens, UniProt Q92794, residues 1-85)
# Method: protein binding microarray
# Molecule type: double-stranded DNA, one strand shown
# Matrix: in vitro
# Concentration: not given
# Setting: 8-mer, flanks averaged, mean of 2 arrays, mostly near background
# Relative to: not given
# Direction: higher = stronger binding
# Construct (chain): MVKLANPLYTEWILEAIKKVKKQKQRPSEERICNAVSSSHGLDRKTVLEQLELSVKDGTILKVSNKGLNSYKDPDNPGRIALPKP
Strand,E-score
AAGCCCTA,-0.0484
ATTGGGTA,-0.258
CGGACCGA,0.155
GGCTGGAA,-0.118
AATGCGGT,0.194
AGGTCTCG,-0.103
CGGTTGCA,0.0155
CCTTAATC,-0.108
CTCAATGA,-0.183
ATCACAAC,-0.0227
TTAATCAA,-0.161
ACACGTAA,-0.117
CTCATGTC,-0.0201
GTACACGA,-0.116
CTCTTCCC,0.068
GGGAGGTA,0.0354
CCTACGCC,0.133
CATATGGC,-0.0191
CTAGGTAA,-0.148

# Series 5
# Target: Sal-like protein 4, full length isoform B (SALL4, Homo sapiens, UniProt Q9UJQ4-2, residues 1-616)
# Method: universal PBM
# Molecule type: double-stranded DNA, one strand shown
# Matrix: in vitro
# Concentration: not given
# Setting: 8-mer, flanks averaged, mean of replicates
# Direction: higher = stronger binding
Strand,E-score
AAAAAGTG,0.173
CTCGCGCC,-0.294
CGCTAACG,0.0236
ATTTTGCG,0.205
AGCAGCCC,-0.291
CAGACGCG,-0.343
ACCTTGGG,-0.0774
ACCCGCCT,-0.301
AAGATGAC,0.147
GTTGGGCA,-0.119
AAAAGATA,0.309
TCTACTCA,0.0441
ATTCATGG,0.122
AGCGTGGG,-0.286
CCGCGTGA,-0.0934
AGAACAGG,-0.0887
CCGCAATA,0.125
GAACAGCA,0.0664
CGCTAAAG,-0.013

# For quick reference, copied from above (series 5):
Strand,E-score
AAAAAGTG,0.173
CTCGCGCC,-0.294
CGCTAACG,0.0236
ATTTTGCG,0.205
AGCAGCCC,-0.291
CAGACGCG,-0.343
ACCTTGGG,-0.0774
